# Experimental data from different studies.
# Parts stem from different laboratories: compare values within a part only. Changes are numbered by the printed parent chain.

# Series 1
# Target: PABPC1L2, full length, GST fusion (mouse, UniProt A0ABA7IW68)
# Method: RNAcompete
# Form: RNA
# Matrix: in vitro
# Tested at: 20 nM
# Setting: 7-mer, probes averaged, single round
# Relative to: mean of 7-mers
# Direction: higher = stronger binding
# Target sequence (chain): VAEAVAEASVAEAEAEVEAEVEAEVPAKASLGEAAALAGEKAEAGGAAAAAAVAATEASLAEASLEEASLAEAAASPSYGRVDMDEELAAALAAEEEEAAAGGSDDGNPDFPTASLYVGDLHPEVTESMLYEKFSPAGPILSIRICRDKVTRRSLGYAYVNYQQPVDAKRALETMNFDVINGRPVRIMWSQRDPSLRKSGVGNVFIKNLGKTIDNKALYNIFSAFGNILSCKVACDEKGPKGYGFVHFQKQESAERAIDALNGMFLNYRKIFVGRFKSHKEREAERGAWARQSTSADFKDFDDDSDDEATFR
Oligonucleotide,7-mer Z-score
UCGGAGG,0.218
GUUGCGU,-0.331
CGACUGG,0.0189
CUCUUUC,-0.44
GAUACCG,-0.3
UAUUUAC,0.137
GAACAGC,-0.00833
AACACUU,0.142
CAGUGCC,-0.264
CGGAUAC,-0.05
AGAGUUG,-0.208
AAGUUCA,0.109
UGUUUCG,-0.527
UGGGGCU,0.285
GACCCAC,-0.273
GAAUCAU,-0.142

# Series 2
# Target: Histone acetyltransferase KAT6A, winged helix 1, GST fusion (KAT6A, Homo sapiens, UniProt Q92794, residues 1-85)
# Method: protein binding microarray
# Form: double-stranded DNA, one strand shown
# Matrix: in vitro
# Tested at: not given
# Setting: 8-mer, flanks averaged, mean of 2 arrays, mostly near background
# Relative to: not given
# Direction: higher = stronger binding
# Residues (chain): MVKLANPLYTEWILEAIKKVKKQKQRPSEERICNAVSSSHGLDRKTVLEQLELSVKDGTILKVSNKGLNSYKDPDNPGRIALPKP
Oligonucleotide,E-score
CCGGGGGA,0.305
AGCGCGAG,0.297
ATGGGCTA,-0.271
AGACGGGA,0.183
ATGACCCC,-0.0342
GGGGGTAA,-0.0998
ATTGATAA,-0.233
GTACTAAA,-0.0676
AGAGGACT,-0.098
CATCTACC,-0.125
CGAATGAC,-0.0449
CGGTGCGA,0.196
AACATGCG,0.145
ATCGCCGC,0.407
CGAAGACG,0.125
AGTGGGAT,-0.204
ACACTCGT,-0.242
ACACGGAC,0.215
ACACTGCC,0.0367
GCTCTGAA,-0.0384
GAGAAAGC,0.109
ACTTTGCT,-0.123
CAGTTGTA,-0.0174
CGTGCAAC,-0.0144
GATGATGC,-0.0426

# Series 3
# Target: Prothrombin, mature alpha-thrombin (F2, Homo sapiens, UniProt P00734)
# Method: aptamer microarray, sandwich
# Form: DNA with 2'F-ANA
# Matrix: in vitro
# Tested at: 200 nM
# Setting: whole 15-mer aptamer, many near background
# With: Cy3 exosite-II aptamer, 400 nM
# Direction: higher = stronger binding
# Oligonucleotide: GGTTGGTGTGGTTGG
Modification,mean fluorescence intensity
2'F-ANA at 6 7 8 10 12 14,144 a.u.
2'F-ANA at 3 5 6 7 8 9 10 11 12 13 15,59.9 a.u.
2'F-ANA at 2 3 5 7 8 12,333 a.u.
2'F-ANA at 3 4 5 6 7 11 15,70.6 a.u.
2'F-ANA at 1 2 3 4 5 7 8 9 10 11 12,54.9 a.u.
2'F-ANA at 1 2 4 6 7 8 10 11 12,56.8 a.u.
2'F-ANA at 2 3 6 7 14 15,395 a.u.
2'F-ANA at 3 5 6 7 8 9 10 11 15,56.8 a.u.
2'F-ANA at 1 2 5 6 7 10 11 13 14,54.8 a.u.
2'F-ANA at 4 6 10 12 13 14 15,55.2 a.u.
2'F-ANA at 2 3 7 9 10 11 12 14,267 a.u.
2'F-ANA at 1 2 4 8 11 12 13 14,55.9 a.u.
2'F-ANA at 2 8 9 10 11,116 a.u.
2'F-ANA at 1 4 5 6 7 9 10 11 15,68 a.u.
2'F-ANA at 7 10 12 14 15,126 a.u.
2'F-ANA at 1 2 4 5 6 8 10 11 15,51.3 a.u.
2'F-ANA at 1 5 6 8 9 10 15,47.4 a.u.
2'F-ANA at 1 7 9 13 14,53.5 a.u.

# Series 4
# Target: RNA binding protein fox-1 homolog 2, RRM domain, GST-SBP tag (RBFOX2, Homo sapiens, UniProt O43251-10, residues 100-194)
# Method: RNA Bind-n-Seq
# Form: RNA
# Matrix: in vitro
# Tested at: 365 nM
# Setting: natural RNA segment, single round, ends assumed
# Relative to: no-protein control
# Direction: higher = stronger binding
# Shared flanks, not repeated: GGGAGUUCUACAGUCCGACGAUC … UGGAAUUCUCGGGUGCCAA
# Construct (chain): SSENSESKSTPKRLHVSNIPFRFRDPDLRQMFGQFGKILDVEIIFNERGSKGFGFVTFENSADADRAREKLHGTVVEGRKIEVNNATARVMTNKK
Oligonucleotide,RBNS enrichment (R)
UCAAAGAAAUGAUCUUCAUGAUAAACUUCAAAGGAACAAACUUUAUGUUUUAGCUUCUAAAGACAAAAAUAUAGUGUUUUUAGCUUUUAGUUAAACUUUAUAAUUCUUUG,0.467
UGUGGAGGGACAACAGAGAGCAGUGUAUCUGAGUAAGAUGCACACAUCGAAGUGCGUUCAAAGUCUGUGUCUAGGUAUAUAUGUCCGUGUAGCUCUCUCCUUUUGUUUAC,0.466
AAUCUGCUCAGGAGACCUGGAGGAGCAGAGGAUAAUUAGCAUCUCAGGUUAAGUGUGAGUAAUCUGAGAAACAAUGACUAAUUCUUGCAUAUUUUGUAACUUCCAUGUGA,1.62
CCAUUCUCACAGAACCUCAAAGACUUGGUUCCAGGCUCUCCAGAGACCAUACCCAACUCAUGUGCAUGUGCCGUUUUUGCUUCAAGCUCAGUAGCAGGACCUGCCCCGAG,3.24
CCUUCCUCAGCCUCUGGCCCUCUUGGCUCAGAUUCAAUCAAAUGUUGCUUCCCUCUCCUGUCUUUCCCACUGGAGCCGCCCAAGCUUGUAGGUGGGUGGUGUGCAUAGGC,1.15
AUUUGUGAAGAGGUUCGCAGGGAUAAGGGGUGCACUUUAUAGCUAUGGAAACAUGAGAUUCUCCUCUAUUGGAAGCUAAUUAGCCCACAAAGGUGGUAAACCUGUAGAUU,0.483
UUUCCCCAGAGAUAAAGGCUGCCAUUUUGGGGGUCUGUACUUAUGGCCUGAAAAUAUUUGUGAUCCAUAACUCUACACAGCCUUUACUCAUACUAUUAGGCACACUUUCC,0.455
UGCUUUUUUAUAAGAGUUGUCAUUGUUGGAAAUUCUUAAAUAAAACUGAUUUAAAUAAUAUGUGUCUUUGUUUUGCAGCCCUGAAUGCAAAGAAUUCAUAGCAGUUAAUU,0.774
GCCCCUCAGCCCAGCAGCCUGGGCUCCCAGUGCUGAGGCCCUCUGUUCAGGCCUCCGCCCACCCUGAGUGGAAUGGAGCCAUGCAUUCAGUAAACUGACUUUAUUCUCCC,0.378
CUUGGAAAGCUAGGAAGGCUGCAUUGUGUGGUGGCAGGCUCCCGAGACUCGUGUUCUGAAGGAUACUCUCCUCCAUCACCCCUGCACCUUCCUCCGACCUGUGUAGGGUG,0.966
UUAUUGGUAAACAAGAUCUUGCCCUCCAAUGAAAUGACUUACAUGUUUUAAAAAACCGAGUUGGUUUUAUUGAAUUUAAAAAGAUAGGUAACUAAGUAGCAUUUAAAAUC,0.608
AAGCCUGACCCCUUGCUUCCUCCCCGCCCCCCAGUGCGUUCUGUGAUCGCCAAGUUCAAAGCUGUGCACAUGUGGACACUCAAUAAAUGUUUAUUGGUGAUGAGAAGCCU,0.225

# Series 5
# Target: CCNB1, cyclin fold, Cln2 fusion (human)
# Method: yeast growth competition, sequencing
# Matrix: yeast
# Setting: weak parent motif
# Relative to: not given
# Direction: higher = stronger binding
# Parent: CDC6 docking peptide (human); TLKGRRLVFDNQL
Variant,normalised enrichment score
Q12W,1.01
F9I,0.443
Q12V,0.471
N11L,0.374
D10I,0.772
R5Q,-0.737
T1Y,0.146
D10S,0.552
R5M,0.234
R5A,0.376
F9E,0.435
R5S,-0.00176
L13W,1.35
L13G,0.203
G4W,0.129
T1M,0.322

# For quick reference, copied from above (series 3):
Modification,mean fluorescence intensity
2'F-ANA at 1 4 5 6 7 9 10 11 15,68 a.u.
2'F-ANA at 4 6 10 12 13 14 15,55.2 a.u.
2'F-ANA at 1 5 6 8 9 10 15,47.4 a.u.
2'F-ANA at 1 2 5 6 7 10 11 13 14,54.8 a.u.
2'F-ANA at 6 7 8 10 12 14,144 a.u.
2'F-ANA at 7 10 12 14 15,126 a.u.
2'F-ANA at 3 4 5 6 7 11 15,70.6 a.u.
2'F-ANA at 1 7 9 13 14,53.5 a.u.
2'F-ANA at 2 3 7 9 10 11 12 14,267 a.u.
2'F-ANA at 2 8 9 10 11,116 a.u.
2'F-ANA at 1 2 4 6 7 8 10 11 12,56.8 a.u.
2'F-ANA at 1 2 4 5 6 8 10 11 15,51.3 a.u.
